Measured values gathered from unrelated publications.
Compare with care: the assays were run in different laboratories. ± marks the error that the study gave.
Organism: HIV-1

SMILES | assay | test system | setting | how to read | measurement | value
C=C(C)[C@@]12C[C@@H](COC(=O)c3ccccc3)[C@@]34OC5(O[C@@H]1[C@@H]3[C@@H]1O[C@]1(CO)[C@@H](O)[C@@]1(O)[C@H]4[C@H]([C@H](C)[C@@H]1OC(=O)c1ccccc1)[C@H](C)CCCCCC[C@H]5O)O2 | viral replication | MT4, NL4-3 | – | – | IC50 | 0.15 ± 0.04 nM
C=C(C)[C@@]12O[C@@]3(c4ccccc4)O[C@@H]1[C@@H]1[C@@H]4O[C@]4(CO)[C@@H](O)[C@]4(O)C(=O)C(C)=C[C@H]4[C@@]1(O3)[C@H](C)[C@H]2OC(=O)/C=C/C=C/c1ccccc1 | viral replication, luciferase reporter | MT-4, NL4-3 Nanoluc-sec | – | – | EC50 | 0.84 ± 0.2 nM
Cc1cc(C#N)cc(C)c1Oc1nc(Nc2ccc(C#N)cc2)nc(N)c1Br | MTT | MT4, RT L100I/V179D/Y181C mutant | – | baseline: mutant EC50 over IIIB EC50 | resistance fold | 41
Cc1ccc(-n2sc3ccccc3c2=O)cc1 | viral replication | human macrophages, Ba-L | – | – | IC50 | 4000 nM
CN(C)C(=O)CCOc1ccccc1Oc1cccc2cc(C#N)ccc12 | viral cytopathic effect | MT-2, IIIB | – | – | EC50 | 2.7 ± 20 nM
O=c1c2ccccc2sn1-c1ccc(F)cc1 | viral replication | – | – | – | IC50 | 5430 nM
Cc1ccnc2c1NC(=O)c1cccnc1N2C1CC1 | MTT | MT4, RT A98G/V106I/V179D/Y181C/G333E mutant | – | baseline: mutant EC50 over IIIB EC50 | resistance fold | > 106
O=c1c2ccccc2sn1Cc1ccc(Cl)cc1 | viral replication | – | – | – | IC50 | 17300 nM
O=C(c1ccc(OS(=O)(=O)F)cc1O)c1ccc(OS(=O)(=O)F)cc1O | viral replication, β-gal reporter | P4/R5 cells, NL4-3 | – | – | EC50 | 7300 nM
c1cc(CN2CCCNCCNCCCNCC2)ccc1CN1CCCNCCNCCCNCC1 | viral replication | MT-4, NL4.3 | – | – | EC50 | 5.35 ng/mL
Nc1ccn([C@@H]2CS[C@H](CO)O2)c(=O)n1 | MTT | MT4, RT A98G/V106I/V179D/Y181C/G333E mutant | – | baseline: mutant EC50 over IIIB EC50 | resistance fold | 1.9
O=C(c1cc(-n2sc3ncccc3c2=O)ccc1Cl)N1CCOCC1 | viral replication | – | – | – | IC50 | 320 nM
C=C(C)[C@]12C[C@@H](C)[C@@]34O[C@](CCCCCCCCCCC)(O[C@@H]1[C@@H]3[C@@H]1O[C@]1(CO)[C@@H](O)[C@]1(O)C(=O)C(C)=C[C@H]14)O2 | viral replication | MT-4, NL4-3 NanoLuc-sec reporter | – | – | IC50 | 0.82 ± 0.21 nM
COCCN1C(=O)/C(=C\NNC(=O)c2cc(Cl)ccc2O)C(=O)NC1=S | viral replication | MT4, IIIB | – | – | EC50 | > 40000 nM
N#Cc1cc(-n2sc3ccccc3c2=O)ccc1F | viral replication | – | 3 µM | – | inhibition | > 60%
CC(C)CN(C[C@@H](O)[C@H](Cc1ccccc1)NC(=O)O[C@H]1CO[C@H]2OCC[C@H]21)S(=O)(=O)c1ccc(N)cc1 | viral replication | MT2 | – | – | EC50 | 4 nM
Cn1c(Cn2ccc(C(F)(F)F)c(Oc3cc(Cl)cc(C#N)c3)c2=O)n[nH]c1=O | MTT | MT4, RT A98G/V106I/V179D/Y181C/G333E mutant | – | baseline: mutant EC50 over IIIB EC50 | resistance fold | 75
C=CC(=O)N(C)CCOc1ccccc1Oc1cccc2cc(C#N)ccc12 | viral cytopathic effect | MT-2, IIIB | – | – | EC50 | 1.2 ± 0.4 nM
Cc1ccc(-n2sc3ccccc3c2=O)cc1S(=O)(=O)N1CCCC1 | viral replication | – | 3 µM | – | inhibition | > 50%
Cc1cc(/C=C/C#N)cc(C)c1Nc1ccnc(Nc2ccc(C#N)cc2)n1 | viral replication | TZM-bl, A17 K103N/Y181C | 48 h | – | EC50 | 1.86 ± 1.09 nM
CC(C)CN(C[C@@H](O)[C@H](Cc1cc(F)cc(F)c1)NC(=O)O[C@H]1C[C@@H]2C[C@H]3[C@H](OC[C@H]31)O2)S(=O)(=O)c1ccc2nc(NC3CC3)sc2c1 | viral replication | – | – | – | IC50 | 0.029 ± 0.013 nM
COc1cc(-n2sc3ccccc3c2=O)ccc1F | viral replication | – | 3 µM | – | inhibition | > 60%
Cc1c(O)cccc1C(=O)N[C@@H](CSc1ccccc1)[C@H](O)CN1C[C@H]2CCCC[C@H]2C[C@H]1C(=O)NC(C)(C)C | viral infection | – | – | – | EC50 | > 20000 nM
